# Results from different studies.
# Numbered parts are unrelated; each lists some results of a single study. Changes are numbered by the printed parent chain.

# Study 1
# Target: RNA binding protein fox-1 homolog 2, RRM domain, GST-SBP tag (RBFOX2, Homo sapiens, UniProt O43251-10, residues 100-194)
# Method: RNA Bind-n-Seq
# Molecule type: RNA
# Matrix: in vitro
# Concentration: 365 nM
# Notes: natural RNA segment, single round, ends assumed
# Baseline: no-protein control
# Direction: higher = stronger binding
# Constant ends, left off below: GGGAGUUCUACAGUCCGACGAUC … UGGAAUUCUCGGGUGCCAA
# Target sequence (chain): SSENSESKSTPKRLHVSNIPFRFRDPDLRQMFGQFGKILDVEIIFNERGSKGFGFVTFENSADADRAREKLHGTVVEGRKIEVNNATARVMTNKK
Oligonucleotide,RBNS enrichment (R)
CUUUUUAAAAUGAUUUAGACCGAUUUUCAGAUUUUAUUUCGUUAUGAUUAAAGAUGUCUCAUGUACUUGGAAAAGUGAGCAUUUUUUUUUUUUUUGUAUUUCACUUUCAU,1.39
UCCCUACCUGGUACCCUCCCUGGGUUGAGUAUGAAUGGACAGCUCAGAGACUUUGGGAAGAGAAAUUAAAACUGAAAACAAAGGAGAUAACACCCAUACUUAAGCCUGCA,7.94
GGAUGCAUGGGUGCCCGGAUGCAUGGGUGCAUGCUGGUCUCAAGUCACAAGCUGCCUCUAUUUCAGUUCGCUCACCUCUUUGCCCUGUCCCCAGUAUUGAUCCCCCACCC,1.86
AUCCGCCCCUUAGAGCCCUCUGGCUAGAGGAGCCACCAGUGGAAAGGAAGACCCUCCAUCCUCUGGUAUUAACGCCUUAAUGCCCCUGUCUUUUACUGUAAGUUACUUAA,0.271
AACACUGUCUCAUGUUGUGCUUCUUAAACGACAAAGAACAUAGUGACUUUUGGGGAUAGAUCUGUCUGGGAGAUAAUGUGAGUCCAGGAGGCAUUACUCUUCCCUGCCUC,0.413
GACAAAUCAUGGUAGAGGUGCCCACCAACCAGUUUGCACAGUGGAGGCCACCUGACAUGCAUUAGCCUGGACUUCUCUGAGAGCUGGGCACAGCUUGCAGGACCCUGGCU,1.71
UUGACACUGAGGGAAGUCCUAUCUGUCAGUCCUGACCACUUAAGCCAGGACCCCAUGCUUCCUUUACUCUGUCUCCUCAUCUCUGUACCUCCCCUGACACCCCAGUCCUG,0.504
AGCGGGGCAGUCUCGGGUGGCUAGUCAGAGAGAGUGUUUGGGGGUUCCGUGAUGUAGGGUAAGGUGCCUUCUUAUUCUCACUCCACCACCCAAAAGUCAAAAGGUGCCUG,1.05

# Study 2
# Target: PABPC1L2, full length, GST fusion (mouse, UniProt A0ABA7IW68)
# Method: RNAcompete
# Molecule type: RNA
# Matrix: in vitro
# Concentration: 20 nM
# Notes: 7-mer, probes averaged, single round
# Baseline: mean of 7-mers
# Direction: higher = stronger binding
# Residues (chain): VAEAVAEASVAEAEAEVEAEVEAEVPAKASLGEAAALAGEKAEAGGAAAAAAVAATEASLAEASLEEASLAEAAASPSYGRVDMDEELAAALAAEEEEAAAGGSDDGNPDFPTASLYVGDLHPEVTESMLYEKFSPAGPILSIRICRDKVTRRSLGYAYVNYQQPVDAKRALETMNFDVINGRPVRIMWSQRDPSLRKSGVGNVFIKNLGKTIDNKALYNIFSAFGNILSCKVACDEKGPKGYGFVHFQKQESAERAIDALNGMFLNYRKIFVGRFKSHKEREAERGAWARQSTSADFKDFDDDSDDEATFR
Oligonucleotide,7-mer Z-score
AUCCCGU,-0.411
GUUCCGU,-0.405
AUGGAAG,0.16
GCGUCCU,-0.335
CGCGCUC,-0.315
AGUUCAG,-0.186
ACCGCUU,-0.213
CUGCCGA,-0.106
CGAGAGA,0.171
AAGAUCU,0.095
AAUAGAU,0.312
CUCAUUG,-0.186
UCUGCAA,-0.179
UUCGCGC,-0.431
GGCAAAG,0.506
CUCCCGU,-0.402

# Study 3
# Target: Interferon regulatory factor 7, full length, phosphomimetic (IRF7, Homo sapiens, UniProt Q92985, residues 1-503, S101K/S471D/S472D/S475D/S476D/S477D/S483D/S484D/S487D)
# Method: protein-binding microarray
# Molecule type: double-stranded DNA, one strand shown
# Matrix: in vitro
# Concentration: 250 nM
# Notes: 60-bp whole probe
# Added: salmon DNA 0.4 mg/ml
# Baseline: random background probes
# Direction: higher = stronger binding
# Constant ends, left off below: GCCTAGCAC … GTCTTGATTCGCTTGACGCTGCTG
# Construct (chain): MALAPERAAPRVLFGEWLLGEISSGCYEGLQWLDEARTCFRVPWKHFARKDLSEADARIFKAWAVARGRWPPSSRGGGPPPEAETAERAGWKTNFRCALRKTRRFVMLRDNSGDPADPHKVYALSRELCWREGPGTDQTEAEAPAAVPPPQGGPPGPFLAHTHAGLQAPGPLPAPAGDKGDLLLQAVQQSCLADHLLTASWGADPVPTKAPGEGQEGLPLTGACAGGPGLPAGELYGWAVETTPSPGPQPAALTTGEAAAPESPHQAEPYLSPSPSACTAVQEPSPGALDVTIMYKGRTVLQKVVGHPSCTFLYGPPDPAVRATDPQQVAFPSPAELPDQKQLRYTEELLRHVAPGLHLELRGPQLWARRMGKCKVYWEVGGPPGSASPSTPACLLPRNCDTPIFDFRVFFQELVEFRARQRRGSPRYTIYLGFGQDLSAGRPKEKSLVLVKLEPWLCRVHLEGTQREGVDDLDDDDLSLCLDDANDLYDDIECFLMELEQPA
Oligonucleotide,log fluorescence [z-score]
TTGGGTTTCCTTTCCCTTTAGTGCTAG,3.9
GACGGACTGGACTTTGGGGACGTGCTA,-0.771
GCCTTGTTCGTCGCTCCGCTGTGCTAG,0.819
GACGGTCTCGGTATCGGCACGTGCTAG,1.97
GACGGTTTCCTTCCCCTGACGTGCTAG,1.93
CTAGGTTTCCTTTTCCTTTAGTGCTAG,7.16
GACGGGATCGGTATCGGGACGTGCTAG,0.277
TCATAATTCTTTGCTCATACTGTGCTA,0.398
GACGGACTGGGGTTTCGGGTCGTGCTA,3.9
TTAGGTACCCTTATCCTTTAGTGCTAG,0.677
CCAGTTTTCTTTTCATTACTGTGCTAG,4.78
TTAGGTCTCGGTATCGGTAAGTGCTAG,2.58
GACGATTTCGAGTTTCGAGACGTGCTA,4.88
GACGGTTCCCTTTTCCAGACGTGCTAG,2.91
TTAGATATCGGCACTGGATTAGTGCTA,-0.113
GACGATTTCAATATCGAGACGTGCTAG,0.508
TTAGATTTCGGGTTTCAATTAGTGCTA,2.76
GACGGTCTCCTTATCCTGACGTGCTAG,0.25
GACGGTTTCGGACGGGGGACGTGCTAG,3.14

# Study 4
# Target: Histone acetyltransferase KAT6A, winged helix 1, GST fusion (KAT6A, Homo sapiens, UniProt Q92794, residues 1-85)
# Method: protein binding microarray
# Molecule type: double-stranded DNA, one strand shown
# Matrix: in vitro
# Concentration: not given
# Notes: 8-mer, flanks averaged, mean of 2 arrays, mostly near background
# Baseline: not given
# Direction: higher = stronger binding
# Construct (chain): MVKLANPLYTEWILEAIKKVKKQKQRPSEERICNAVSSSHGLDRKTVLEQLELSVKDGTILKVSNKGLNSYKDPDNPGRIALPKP
Oligonucleotide,E-score
AGGCCATA,-0.0514
CATGAGGA,-0.0837
CCATCGAC,-0.0894
CCTTGGAG,-0.174
GGACAGAC,0.0519
AAGGTCAG,-0.212
AGGCACCG,0.0648
GTTGTCGA,-0.12
GTGGGACA,-0.128
GGTCGATA,-0.0351
AATAATAG,-0.169
ACATTGAA,-0.107
CATTCTAG,-0.179
ACTCACCT,-0.276
AACAGATT,-0.25
ATGCGCAC,0.352
ACTGCTAC,-0.229
ATATCAAG,-0.0583
AAGGGTAT,-0.05
CTTTGACC,-0.0532
CGAGTCAC,0.016
GTTTGTGA,-0.148

# Study 5
# Target: FOSL1, bZIP domain (human)
# Method: DHFR protein complementation
# Matrix: yeast
# Notes: single substitutions, most at no-binding floor
# Baseline: wild-type JUN-FOS pair
# Direction: higher = stronger binding
# Starting sequence: JUN, bZIP domain (human); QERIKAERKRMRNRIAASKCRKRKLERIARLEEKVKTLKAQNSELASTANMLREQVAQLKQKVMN; partner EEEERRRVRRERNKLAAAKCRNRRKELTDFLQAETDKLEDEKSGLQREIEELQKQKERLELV
Substitution,binding fitness [natural log]
A57E,-0.343
K39C,-1.01
E54N,-0.563
L52I,-0.88
V35P,-1.45
V35T,-1.04
E33F,-0.708
Q58N,-0.426
R53Q,-0.942
Q58V,-0.365
A29L,-0.701
E54S,-0.609
A29D,-0.524
S43K,-0.119
A49G,-1.28
M51F,-0.505
R30N,-0.397
V56E,-1.45
R53M,-1.19
S47E,-0.197
Q55V,-0.583

# Excerpt of the above (study 4):
Oligonucleotide,E-score
GTTGTCGA,-0.12
GTGGGACA,-0.128
GGTCGATA,-0.0351
AATAATAG,-0.169
ACATTGAA,-0.107
